# Measurements of several laboratories.
# Lines come from different studies, so protocols differ. Numbers after ± are the reported error.
# B1: spdl-1 C-terminal 362-479 (Caenorhabditis elegans, UniProt Q17695); sequence looked up; chain PVVNKDFEHPLLAAPLKTLNNGRPSFFIKPKNVEPMPQLGHSLSSIAVTPQKPAAKFTTRSSIKDDTSEWAERRMKAQAEKKLATPTPRYNYIKLSEPVPKFKPAVLQMPSTSETKEN
# B2: IL18 37-193 C74S/C104S/I107C/C112S/N123C/C163S (Homo sapiens, UniProt Q14116); chain YFGKLESKLSVIRNLNDQVLFIDQGNRPLFEDMTDSDSRDNAPRTIFIISMYKDSQPRGMAVTISVKSEKCSTLSSENKIISFKEMCPPDNIKDTKSDIIFFQRSVPGHDNKMQFESSSYEGYFLASEKERDLFKLILKKEDELGDRSIMFTVQNED
# B3: TNFSF4 51-183 (Homo sapiens, UniProt P23510); sequence looked up; chain QVSHRYPRIQSIKVQFTEYKKEKGFILTSQKEDEIMKVQNNSVIINCDGFYLISLKGYFSQEVNISLHYQKDEEPLFQLKKVRSVNSLMVASLTYKDKVYLNVTTDNTSLDDFHVNGGELILIHQNPGEFCVL
# B4: BAD (Homo sapiens, UniProt Q92934); chain MFQIPEFEPSEQEDSSSAERGLGPSPAGDGPSGSGKHHRQAPGLLWDASHQQEQPTSSSHHGGAGAVEIRSRHSSYPAGTEDDEGMGEEPSPFRGRSRSAPPNLWAAQRYGRELRRMSDEFVDSFKKGLPRPKSAGTATQMRQSSSWTRVFQSWWDRNLGRGSSAPSQ
# B5: UBQLN2 450-624 (Homo sapiens, UniProt Q9UHD9); sequence looked up; chain RAMQALMQIQQGLQTLATEAPGLIPSFTPGVGVGVLGTAIGPVGPVTPIGPIGPIVPFTPIGPIGPIGPTGPAAPPGSTGSGGPTGPTVSSAAPSETTSPTSESGPNQQFIQQMVQALAGANAPQLPNPEVRFQQQLEQLNAMGFLNREANLQALIATGGDINAAIERLLGSQPS
# B6: PTGES3 (Homo sapiens, UniProt Q15185); sequence looked up; chain MQPASAKWYDRRDYVFIEFCVEDSKDVNVNFEKSKLTFSCLGGSDNFKHLNEIDLFHCIDPNDSKHKRTDRSILCCLRKGESGQSWPRLTKERAKLNWLSVDFNNWKDWEDDSDEDMSNFDRFSEMMNNMGGDEDVDLPEVDGADDDSQDSDDEKMPDLE
# B7: EFR3A 721-791 (Homo sapiens, UniProt Q14156); chain SNTEEITFEALKKAIDTSGMEEQEKEKRRLVIEKFQKAPFEEIAAQCESKANLLHDRLAQILELTIRPPPS
# B8: Imd (Marsupenaeus japonicus, UniProt C6L429); sequence looked up; chain MDNIKTDSAPLGSVSSDLQGENPTRQQRQIYNITGSSGVHIGPVIHNLHGMKPCSQHKPQDMPLKKDVEELLKCSREIEERDKIEVSEHLGSSWKSLGRVMGFSAGQLENMTADHTRNVDRVYEMLNRWHDKEAEDATVARLTQMIIKVKAYHVLKKIAP
# B9: SRS2 1107-1174 Q1149E (Saccharomyces cerevisiae, UniProt P12954); N-terminal cysteine BODIPY-FL; chain CHNPDDTTVDNRPIISNAKFLADAAMKKTQKFSKKVKNEPASSEMDIFSQLSRAKKKSKLNNGEIIVID
# B10: NOTCH2 221-530 (Homo sapiens, UniProt Q04721); sequence looked up; chain LYVPCAPSPCVNGGTCRQTGDFTFECNCLPGFEGSTCERNIDDCPNHRCQNGGVCVDGVNTYNCRCPPQWTGQFCTEDVDECLLQPNACQNGGTCANRNGGYGCVCVNGWSGDDCSENIDDCAFASCTPGSTCIDRVASFSCMCPEGKAGLLCHLDDACISNPCHKGALCDTNPLNGQYICTCPQGYKGADCTEDVDECAMANSNPCEHAGKCVNTDGAFHCECLKGYAGPRCEMDINECHSDPCQNDATCLDKIGGFTCLCMPGFKGVHCELEINECQSNPCVNNGQCVDKVNRFQCLCPPGFTGPVCQ
# B11: WDR77 108-207 (Homo sapiens, UniProt Q9BQA1); sequence looked up; chain LDENETLIVSKFCKYEHDDIVSTVSVLSSGTQAVSGSKDICIKVWDLAQQVVLSSYRAHAAQVTCVAASPHKDSVFLSCSEDNRILLWDTRCPKPASQIG
# B12: designed binder (Homo sapiens); chain MASAARLTMMWEEVTCPICLDPFVEPVSIECGHSFCQECISQVGKGGGSVCPVCRQRFLLKNLRPNRQLANMVNNLKEISQEAREGTQGERCAVHGERLHLFCEKDGKALCWVCAQSRKHRDHAMVPLEEAAQEYQEKLQVALGELRRKQELAEKLEVEIAIKRADWKKTVETQKSRIHAEFVQQKNFLVEEEQRQLQELEKDEREQLRILGEKEAKLAQQSQALQELISELDRRCHSSALELLQEVIIVLERSESWNLKDLDITSPELRSVCHVPGLKKMLRTCAGGGGSGGGGSGGGGSRLDAPSYIEVRAVRDNWAVITWDYPLAEIDGFELTYGIKDVPGDRTTIKLTEDDYYYYIDYLKPDTEYEVSLISRRGDMSSNPAKITFKTGL
# B13: ATG9 1-255 (Saccharomyces cerevisiae, UniProt Q12142); sequence looked up; chain MERDEYQLPNSHGKNTFLSRIFGLQSDEVNPSLNSQEMSNFPLPDIERGSSLLHSTNDSREDVDENDLRVPESDQGTSTEEEDEVDEEQVQAYAPQISDGLDGDHQLNSVTSKENVLETEKSNLERLVEGSTDDSVPKVGQLSSEEEEDNEFINNDGFDDDTPLFQKSKIHEFSSKKSNTIEDGKRPLFFRHILQNNRPQRDTQKLFTSSNAIHHDKDKSANNGPRNINGNQKHGTKYFGSATQPRFTGSPLNNT
# B14: Notch ankyrin domain 1902-2139 (Drosophila, UniProt P07207); chain GLTPLMIAAVRGGGLDTGEDIENNEDSTAQVISDLLAQGAELNATMDKTGETSLHLAARFARADAAKRLLDAGADANCQDNTGRTPLHAAVAADAMGVFQILLRNRATNLNARMHDGTTPLILAARLAIEGMVEDLITADADINAADNSGKTALHWAAAVNNTEAVNILLMHHANRDAQDDKDETPLFLAAREGSYEACKALLDNFANREITDHMDRLPRDVASERLHHDIVRLLDEH
# Chain of UniProt P39900 (whole entry, unmodified, looked up): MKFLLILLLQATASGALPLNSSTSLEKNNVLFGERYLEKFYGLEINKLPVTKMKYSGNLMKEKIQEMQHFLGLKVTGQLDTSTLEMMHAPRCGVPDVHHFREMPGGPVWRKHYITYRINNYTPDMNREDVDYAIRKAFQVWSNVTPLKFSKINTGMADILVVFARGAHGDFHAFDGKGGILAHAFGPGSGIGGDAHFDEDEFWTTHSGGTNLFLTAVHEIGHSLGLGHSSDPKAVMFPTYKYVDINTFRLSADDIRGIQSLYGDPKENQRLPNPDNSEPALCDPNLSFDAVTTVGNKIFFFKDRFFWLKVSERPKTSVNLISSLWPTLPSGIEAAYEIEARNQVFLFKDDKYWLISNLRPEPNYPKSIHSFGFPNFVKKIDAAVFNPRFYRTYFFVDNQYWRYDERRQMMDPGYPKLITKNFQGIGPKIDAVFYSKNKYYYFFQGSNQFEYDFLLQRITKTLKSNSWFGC
# Chain of UniProt O95619 (whole entry, looked up): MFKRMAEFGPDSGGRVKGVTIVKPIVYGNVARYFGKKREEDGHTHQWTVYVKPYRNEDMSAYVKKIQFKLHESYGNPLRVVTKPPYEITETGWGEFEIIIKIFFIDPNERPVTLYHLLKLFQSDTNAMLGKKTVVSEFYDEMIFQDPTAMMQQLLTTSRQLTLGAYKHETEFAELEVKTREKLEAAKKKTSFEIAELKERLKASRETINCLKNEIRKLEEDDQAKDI
# Chain of UniProt Q9T074 (whole entry, looked up): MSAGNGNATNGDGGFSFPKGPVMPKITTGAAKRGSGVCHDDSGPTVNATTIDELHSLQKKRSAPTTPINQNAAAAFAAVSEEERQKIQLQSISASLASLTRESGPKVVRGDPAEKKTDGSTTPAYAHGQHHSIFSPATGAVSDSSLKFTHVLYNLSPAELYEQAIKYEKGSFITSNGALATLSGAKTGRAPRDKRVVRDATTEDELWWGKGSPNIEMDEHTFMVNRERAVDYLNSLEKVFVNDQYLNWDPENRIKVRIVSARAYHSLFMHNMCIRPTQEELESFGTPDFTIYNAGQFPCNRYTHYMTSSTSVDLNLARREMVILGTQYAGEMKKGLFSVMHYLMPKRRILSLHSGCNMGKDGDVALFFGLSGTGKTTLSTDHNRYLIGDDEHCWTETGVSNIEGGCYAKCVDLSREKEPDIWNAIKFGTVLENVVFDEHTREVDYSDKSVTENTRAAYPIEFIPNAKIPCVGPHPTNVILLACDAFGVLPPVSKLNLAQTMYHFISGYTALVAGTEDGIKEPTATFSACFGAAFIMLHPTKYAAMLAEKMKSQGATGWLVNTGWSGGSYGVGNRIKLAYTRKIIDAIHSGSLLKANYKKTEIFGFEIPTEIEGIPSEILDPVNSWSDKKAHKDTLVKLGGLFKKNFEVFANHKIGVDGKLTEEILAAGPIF
# Chain of UniProt Q39011 (whole entry, looked up): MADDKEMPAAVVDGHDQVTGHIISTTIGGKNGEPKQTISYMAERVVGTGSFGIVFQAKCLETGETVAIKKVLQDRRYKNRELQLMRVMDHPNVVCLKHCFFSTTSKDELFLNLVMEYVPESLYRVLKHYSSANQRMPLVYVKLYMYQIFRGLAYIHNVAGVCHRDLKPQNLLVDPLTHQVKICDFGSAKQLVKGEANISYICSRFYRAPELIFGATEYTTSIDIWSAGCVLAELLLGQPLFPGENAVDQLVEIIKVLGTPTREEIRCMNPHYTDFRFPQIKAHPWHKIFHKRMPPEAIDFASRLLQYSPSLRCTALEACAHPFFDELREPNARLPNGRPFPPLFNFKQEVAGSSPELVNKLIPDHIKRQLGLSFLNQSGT
# Chain of UniProt Q9UDY8 (whole entry, looked up): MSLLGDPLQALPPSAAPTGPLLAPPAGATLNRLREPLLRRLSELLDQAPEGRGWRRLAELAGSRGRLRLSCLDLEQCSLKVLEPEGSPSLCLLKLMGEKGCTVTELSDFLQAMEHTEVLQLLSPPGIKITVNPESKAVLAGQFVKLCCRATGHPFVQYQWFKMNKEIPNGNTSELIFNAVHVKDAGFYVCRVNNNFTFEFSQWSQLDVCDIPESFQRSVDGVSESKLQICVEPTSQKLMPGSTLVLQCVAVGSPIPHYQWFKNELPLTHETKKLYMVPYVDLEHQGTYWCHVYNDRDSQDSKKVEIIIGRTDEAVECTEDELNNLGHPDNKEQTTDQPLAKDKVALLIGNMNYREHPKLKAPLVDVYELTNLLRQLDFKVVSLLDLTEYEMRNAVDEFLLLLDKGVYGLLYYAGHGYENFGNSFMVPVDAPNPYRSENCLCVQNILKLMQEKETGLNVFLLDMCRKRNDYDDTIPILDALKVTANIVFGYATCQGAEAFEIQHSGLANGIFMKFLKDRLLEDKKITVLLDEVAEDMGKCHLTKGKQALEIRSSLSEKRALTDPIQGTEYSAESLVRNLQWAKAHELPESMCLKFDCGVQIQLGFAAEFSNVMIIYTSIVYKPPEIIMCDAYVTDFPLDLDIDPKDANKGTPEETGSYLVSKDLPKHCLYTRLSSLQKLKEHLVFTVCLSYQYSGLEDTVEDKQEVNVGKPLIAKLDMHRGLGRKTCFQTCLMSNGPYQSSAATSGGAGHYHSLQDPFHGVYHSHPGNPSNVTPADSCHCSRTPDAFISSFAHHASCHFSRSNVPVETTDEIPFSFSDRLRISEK
# Chain of UniProt Q23985 (whole entry, looked up): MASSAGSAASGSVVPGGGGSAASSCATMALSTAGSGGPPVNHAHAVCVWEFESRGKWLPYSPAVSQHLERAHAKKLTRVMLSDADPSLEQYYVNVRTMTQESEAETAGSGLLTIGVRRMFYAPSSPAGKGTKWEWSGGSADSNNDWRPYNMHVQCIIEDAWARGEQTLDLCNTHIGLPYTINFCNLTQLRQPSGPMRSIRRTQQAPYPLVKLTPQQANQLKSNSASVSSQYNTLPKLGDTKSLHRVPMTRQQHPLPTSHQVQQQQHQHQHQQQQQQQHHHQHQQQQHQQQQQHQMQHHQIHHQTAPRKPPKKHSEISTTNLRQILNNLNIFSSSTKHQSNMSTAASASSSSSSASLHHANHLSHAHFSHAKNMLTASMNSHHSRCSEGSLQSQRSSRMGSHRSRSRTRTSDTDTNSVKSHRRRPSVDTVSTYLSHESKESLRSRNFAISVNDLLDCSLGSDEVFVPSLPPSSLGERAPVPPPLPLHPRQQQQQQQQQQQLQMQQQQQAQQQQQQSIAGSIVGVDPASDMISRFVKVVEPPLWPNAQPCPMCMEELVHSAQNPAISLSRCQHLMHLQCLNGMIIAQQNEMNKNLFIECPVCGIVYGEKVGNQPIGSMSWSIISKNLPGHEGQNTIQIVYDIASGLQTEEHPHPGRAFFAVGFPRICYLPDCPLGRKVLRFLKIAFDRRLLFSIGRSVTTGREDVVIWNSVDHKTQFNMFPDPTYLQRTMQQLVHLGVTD
# Chain of UniProt Q9NR61 (whole entry, unmodified, looked up): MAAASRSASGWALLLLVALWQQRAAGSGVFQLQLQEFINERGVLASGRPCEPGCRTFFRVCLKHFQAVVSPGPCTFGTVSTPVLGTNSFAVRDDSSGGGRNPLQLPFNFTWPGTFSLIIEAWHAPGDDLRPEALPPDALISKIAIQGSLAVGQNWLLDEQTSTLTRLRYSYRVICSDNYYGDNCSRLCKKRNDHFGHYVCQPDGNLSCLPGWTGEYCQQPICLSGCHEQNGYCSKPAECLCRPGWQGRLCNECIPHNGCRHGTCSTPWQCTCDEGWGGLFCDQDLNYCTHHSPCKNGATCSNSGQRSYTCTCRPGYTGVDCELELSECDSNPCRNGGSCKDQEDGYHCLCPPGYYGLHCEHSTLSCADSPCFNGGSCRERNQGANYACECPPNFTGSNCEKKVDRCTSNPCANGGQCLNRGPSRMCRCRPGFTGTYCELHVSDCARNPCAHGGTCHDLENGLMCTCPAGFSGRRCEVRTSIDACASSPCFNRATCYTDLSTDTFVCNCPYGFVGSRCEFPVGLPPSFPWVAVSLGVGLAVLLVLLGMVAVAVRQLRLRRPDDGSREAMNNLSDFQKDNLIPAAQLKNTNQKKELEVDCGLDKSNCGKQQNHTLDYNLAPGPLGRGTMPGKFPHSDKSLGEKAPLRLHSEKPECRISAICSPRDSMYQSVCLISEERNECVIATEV
# Chain of UniProt P70345 (whole entry, looked up): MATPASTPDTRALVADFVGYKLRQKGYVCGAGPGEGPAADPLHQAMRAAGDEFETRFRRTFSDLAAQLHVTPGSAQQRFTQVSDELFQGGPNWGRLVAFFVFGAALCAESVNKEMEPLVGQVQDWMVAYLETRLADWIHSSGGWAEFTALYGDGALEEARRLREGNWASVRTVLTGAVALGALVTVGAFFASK
Molecule,partner,test,system,setting,Kd [µM]
B1 (spdl-1 C-terminal 362-479),"zwl-1 (Caenorhabditis elegans, UniProt Q95XP9)",SPR,,,116 ± 5.4
B2,"IL18BP (Homo sapiens, UniProt O95998)",SPR,,,7.2e-06
B3 (TNFSF4 51-183),"TNFRSF4 29-170 (Homo sapiens, UniProt P43489)",SPR,,,1
B4 (BAD),"Bcl2l2 (Mus musculus, UniProt P70345)",FRET or BRET,,not purified,9
"histone H4 peptide fragment, K5ac","YEATS4 19-159 (Homo sapiens, UniProt O95619)",ITC,,added: histone H3 peptide,> 1000
B5 (UBQLN2 450-624),ubiquitin M1-linked tetramer (UniProt P0CG48),NMR titration,,,12.8
B6 (PTGES3),"HSP90AB1 AMPPNP-bound (Homo sapiens, UniProt P08238)",BLI,,26 °C,1.33
SFSFYK (designed peptide; FITC label),"NHERF2 142-254 (Homo sapiens, UniProt Q15599-1)","fluorescence intensity change, fluorescence titration",peptide,,> 1000
B7 (EFR3A 721-791),TTC7A/FAM126B 1-308,BLI,,,0.000473
B8 (Imd),"Srb2 (Marsupenaeus japonicus, UniProt A0A7D1KMN5)",ITC,,,1.69 ± 0.61
TIMP1 N-terminal domain,"MMP12 catalytic domain 106-263 A252Q/T215V/A173P/A167E/V161I/M156E/Y132K/Y113D (Homo sapiens, UniProt P39900)",BLI,,,0.5
"WASHC2A (Homo sapiens, UniProt Q641Q2)",SNX27 fragment (Homo sapiens),ITC,,,4.97 ± 1.32
B9 (SRS2 1107-1174 Q1149E),"POL30 1-258 K127G (Saccharomyces cerevisiae, UniProt P15873)",fluorescence polarisation,,apparent,0.51
Il2ra soluble (Mus musculus) (sequence not shown),"Il2 (Mus musculus, UniProt P04351)",SPR,,,0.25
B10 (NOTCH2 221-530),"DLL4 27-400 G28S/F107L/I143F/H194Y/L206P/N257P/T271L/F280Y/S301R/Q305P (Homo sapiens, UniProt Q9NR61)",SPR,,,0.054
B11 (WDR77 108-207),"AR (Homo sapiens, UniProt P10275)",BLI,,in vitro,0.000153
"DHEYVLTESFLDSGAFPNHDVIDHNKMLNSNYNGNGILNKGGVLGLVKEYYKKSDVGR (ATG9 940-997 (Saccharomyces cerevisiae, UniProt Q12142); sequence looked up)","Atg23 full-length, dimer (yeast, UniProt Q06671)",BLI,,,0.37
B12 (designed binder),"MALT1 (Homo sapiens, UniProt Q9UDY8)",BLI,designed binder,,> 3.4
"KLLMIIHDRREFAKFEKEKMNAKWDTGENPIYKSAVTTVVNPKYEGK (ITGB1 752-798 (Homo sapiens, UniProt P05556-1); sequence looked up)","Tln2 312-408 (Mus musculus, UniProt Q71LX4)",NMR titration,,,652
"MBL-A mature, hydroxylysine, hydroxyproline in collagen (Rattus norvegicus, UniProt P19999)",C1R fragment (Homo sapiens),SPR,,added: CaCl2 140 mM,0.13
"BIN2 (Arabidopsis thaliana, UniProt Q39011)","PCK1 (Arabidopsis thaliana, UniProt Q9T074)",BLI,,without ATP,0.18
B13 (ATG9 1-255),"ATG23 A34E (Saccharomyces cerevisiae, UniProt Q06671)",BLI,,,7.4
B14 (Notch ankyrin domain 1902-2139),"dx (Drosophila melanogaster, UniProt Q23985)",AUC,,,12.8

# Excerpt of the above:
Molecule,partner,test,system,setting,Kd [µM]
B14 (Notch ankyrin domain 1902-2139),"dx (Drosophila melanogaster, UniProt Q23985)",AUC,,,12.8
B11 (WDR77 108-207),"AR (Homo sapiens, UniProt P10275)",BLI,,in vitro,0.000153
B5 (UBQLN2 450-624),ubiquitin M1-linked tetramer (UniProt P0CG48),NMR titration,,,12.8
"WASHC2A (Homo sapiens, UniProt Q641Q2)",SNX27 fragment (Homo sapiens),ITC,,,4.97 ± 1.32
